# Results from different studies.
# Compare with care: the assays were run in different laboratories. Several values in a cell are separate wells, animals, samples, runs or records. Numbers after ± are the reported error.
# Protein S100-B: Protein S100-B (Homo sapiens, UniProt P04271)
# HCRTR1: Orexin/Hypocretin receptor type 1 (HCRTR1, Homo sapiens, UniProt O43613)
# CASP4: Caspase-4 (CASP4, Homo sapiens, UniProt P49662)
# T1: guanine riboswitch C74U (Bacillus subtilis); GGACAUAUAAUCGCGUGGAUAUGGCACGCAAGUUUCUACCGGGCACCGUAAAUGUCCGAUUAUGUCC
Substance,tested on,assay,system,setting,scale,measurement,value
O=C(/C=C/C=C/c1ccc2c(c1)OCO2)N1CCCCC1,"NR1I2 (Homo sapiens, UniProt O75469)","CYP3A4 promoter reporter, agonist","LS180 transfected with CYP3A4-luc, no PXR",24 h,,EC50,2.45 µM
CPCGARRPDSRLLELHIT (LAGE-1 (76-93); sequence looked up),HLA-DPB1*0401,"peptide binding, biotinylated peptide competition",peptide,,"reference: peptide over reference peptide, lower = stronger binding",relative IC50,> 7300
"Ac-ARPVA-NH2 (N-acetyl, C-amide)","Fibroblast growth factor 2, with pentraxin 3 (Homo sapiens, UniProt P09038)","binding to PTX3, competitor, surface plasmon resonance",peptide,together with: 150 nM free FGF2,,ID50,> 3000 µM
CSCC[C@H](NC(=O)[C@H](CC(C)C)NC(=O)[C@H](CCCCN)NC(=O)[C@H](CCCCN)NC(=O)[C@H](Cc1c[nH]cn1)NC(=O)[C@H](CCCNC(=N)N)NC(=O)[C@H](CO)NC(=O)[C@@H](NC(=O)[C@H](CO)NC(=O)[C@H](CCC(N)=O)NC(=O)CNC(=O)[C@H](CCCCN)NC(=O)[C@H](CCCCN)NC(=O)[C@H](CO)NC(=O)[C@H](CCCCN)NC(=O)[C@H](CC(C)C)NC(=O)[C@H](Cc1c[nH]cn1)NC(=O)[C@H](CO)NC(=O)[C@H](Cc1ccc(O)cc1)NC(C)=O)[C@@H](C)O)C(=O)N[C@@H](Cc1ccccc1)C(=O)N[C@@H](CCCCN)C(=O)N[C@H](C(=O)N[C@@H](CCC(=O)O)C(N)=O)[C@@H](C)O,Protein S100-B,"binding, NMR line shape analysis",,"35 °C, high salt",,koff,900 ± 180 s⁻¹
COc1ccc(-n2nc(C(N)=O)c3c2C(=O)N(c2ccc(N4CCCCC4=O)cc2)CC3)cc1,"F10 (Bos taurus, UniProt P00743)",chromogenic anti-FXa,"healthy humans, plasma","2.5 mg twice daily, day 4 steady state, 0 to 12 h, geometric mean, LMWH-calibrated",,peak plasma anti-factor Xa activity,1.12 IU/mL
O=S(=O)(Nc1ccc(Cl)cc1)C1CC2OC1C(c1ccc(O)cc1)=C2c1ccc(O)cc1 (stereo not shown),"Estrogen receptor (ESR1, Homo sapiens, UniProt P03372)","reporter gene, antagonist",HepG2,together with: estradiol 10 nM,"reference: E2 response, negative is inverse agonism",efficacy,65 ± 3%
CCCN(CCC)c1cc(CC2c3cc(OC)c(OC)cc3CCN2CC(=O)NCc2ccccc2)ccc1OC (stereo not shown),HCRTR1,"calcium signal, antagonist, fluorescence",,,,Kb,0.857 µM
Cc1ccc(Nc2nccc(N(C)c3ccc4c(C)n(C)nc4c3)n2)cc1S(N)(=O)=O,"Broad substrate specificity ATP-binding cassette transporter ABCG2 (Mus musculus, UniProt Q7TMS5)",bidirectional transport,MDCK-Bcrp1 (murine Bcrp1),"5 µM, 240 min, together with: canertinib",,Papp B-A,5.36 ± 0.05 ×10⁻⁶ cm/s
COc1cc2nc(N3CCN(C(=O)C4CCCO4)CC3)nc(N)c2cc1OC (stereo not shown),CASP4,,,"33 µM, together with: LEHD substrate",reference: solvent control,remaining activity,3.25%
COc1cc2c(cc1OC)C(Cc1ccc(OCc3cccnc3)c(OC)c1)N(CC(=O)NCc1ccccc1)CC2 (stereo not shown),HCRTR1,"calcium signal, antagonist, fluorescence",,,,Kb,0.25 µM
CNc1ncnc2[nH]cnc12,"T1, guanine riboswitch C74U (Bacillus subtilis)",ITC,,"pH 7.5, 30 °C, KCl 100 mM, apparent",,Kd,105 µM
CC(C(=O)O)c1ccc(N2Cc3ccccc3C2=O)cc1 (stereo not shown),CASP4,,,"33 µM, together with: LEHD substrate",reference: solvent control,remaining activity,4.23%
CCCSc1nc2c([nH]1)c(=S)n(C)c(=S)n2C,"Androgen receptor (AR, Homo sapiens, UniProt P10275)","reporter gene, antagonist, PSA-luciferase",HeLa-A6,"10 µM, 24 h, together with: 5 nM dihydrotestosterone",reference: maximal activity,remaining activity,78%
O=C(O)c1c(Cl)c(Cl)c(Cl)c(Cl)c1-c1c2cc(I)c(=O)c(I)c-2oc2c(I)c(O)c(I)cc12,"Dual specificity protein phosphatase 5 (Homo sapiens, UniProt Q16690)",inhibitor,,"1 µM, illumination, gassed with air, N2 or O2","reference: illuminated, without compound",enzyme velocity,decreased
"Ac-GPSLNPFDEED-NH2 (N-acetyl, C-amide)","EHD1 EH domain, mouse",ITC,peptide,"pH 7.0, 20 °C, 0 mM KCl, first titration",,ΔS,-11.4 cal/mol/K
CC1=C(C(=O)O)N2C(=O)[C@@H](NC(=O)[C@H](N)c3ccc(O)cc3)[C@H]2SC1,"Slc15a1 (Mus musculus, UniProt Q9JIP7)",intestinal uptake,"wild-type mouse, jejunum","0.01 to 25 mM, pH 6.5",,apparent Vmax,4.8 ± 0.4 nmol/cm²/s
CC(C)[C@H](NC(=O)[C@@H]1CCCN1C(=O)[C@H](CCCNC(=N)N)NC(=O)[C@H](CS)NC(=O)[C@H](Cc1c[nH]c2ccccc12)NC(=O)[C@H](CCCNC(=N)N)NC(=O)[C@@H](Cc1ccccc1)NC(=O)[C@H](Cc1c[nH]cn1)NC(=O)[C@H](CCC(=O)O)NC(=O)[C@H](CS)NC(=O)[C@H](CS)NC(=O)[C@H](CCCCN)NC(=O)[C@@H]1CC(=O)N[C@@H](CCCNC(=N)N)C(=O)N[C@@H](C)C(=O)N[C@@H](CC(=O)O)C(=O)N[C@H](Cc2ccc(O)cc2)C(=O)N1)C(N)=O [technetium-99m labelled],,,"C57 mice, heart","intravenous, 0.037 MBq, 4 h",,tissue uptake,0.2 ± 0.08 %ID/g
CC1=CC(=O)CC(C)(C)C1=O,"Enoyl-ACP reductase (Thermus thermophilus, UniProt P83818)",,,"24 h, pH 7, 30 °C, aerobic, together with: 10 mM substrate, 15 mM NAD(P)H",,conversion,29 to 83%
CNC(C)(C)C(=O)O,rat hippocampal neurons,"calcium-independent uptake, substrate",,15 min,,Km,474 ± 31 µM
CC(C)[C@H](NC(=O)[C@H](CCCNC(=N)N)NC(=O)[C@@H](NC(=O)[C@H](CCC(N)=O)NC(=O)[C@H](CCC(N)=O)NC(=O)[C@@H](NC(=O)[C@H](Cc1c[nH]c2ccccc12)NC(=O)[C@H]1CCCN1C(=O)[C@@H]1CCCN1C(=O)[C@H](Cc1ccccc1)NC(=O)[C@H](CO)NC(=O)CNC(=O)[C@H](CCCNC(=N)N)NC(=O)[C@H](CCCNC(=N)N)NC(=O)[C@H](CCCNC(=N)N)NC(=O)[C@H](CCCNC(=N)N)NC(=O)[C@H](CCCNC(=N)N)NC(=O)[C@@H](N)CCCNC(=N)N)C(C)C)[C@@H](C)O)C(=O)O,"Disks large homolog 4, PDZ3 domain (Homo sapiens, UniProt P78352)","binding, surface plasmon resonance",,"pH 7.5, 25 °C",,kon,1.83e+06 M⁻¹ s⁻¹
Cn1c(=O)n([C@@H]2O[C@H](COP(=O)(O)CP(=O)(O)O)[C@@H](O)[C@H]2O)cc/c1=N\OCc1ccc(Cl)cc1,"5'-nucleotidase, membrane-bound form (Rattus norvegicus, UniProt P21588)","enzyme activity, inhibitor",rat primary astrocytes,"15 min preincubation, together with: AMP 1.0 mM",,Emax,97.3 ± 6.4%
c1cnc2c(c1)ccc1cccnc12,,subfragment degradation,chloroplast extract,,,inhibitory concentration,1 mM
CC[C@H](C)[C@H](NC(=O)[C@@H](NC(=O)[C@H](N)C(C)C)C(C)C)C(=O)N[C@@H](C)C(N)=O,"APP (Homo sapiens, UniProt P05067)","amyloid aggregation, inhibitor, fluorescence",,"4 µM, 24 h",,inhibition,83.5%
Nc1nc2c(ncn2[C@@H]2O[C@@H]3COP(=O)(O)O[C@H]3[C@H]2O)c(=O)[nH]1,"Cnga2 (Rattus norvegicus, UniProt Q00195, C460W/del61-90/E583M)","agonist, inside-out patch clamp",,-50 mV,reference: compound over cAMP,relative maximal current,0.09 ± 0.06
O=S(=O)(O)c1cc(N=C=S)ccc1CCc1ccc(N=C=S)cc1S(=O)(=O)O,"SLC4A1 (Homo sapiens, UniProt P02730)",chloride exchange,human resealed ghosts,0 °C,reference: inward gradient over none,ID50 ratio,0.94 and 1.17 and 1.05 and 2.17 and 1.84 and 1.62 and 0.75
CC[C@H](C)[C@H](NC(=O)[C@H](CCCCN)NC(=O)[C@H](CC(C)C)NC(=O)[C@H](CC(C)C)NC(=O)[C@@H]1CCCN1C(=O)[C@H](CC(C)C)NC(=O)[C@H](CCCCN)NC(=O)[C@@H]1CCCN1C(=O)[C@H](CCCNC(=N)N)NC(=O)[C@@H](NC(=O)[C@H](CCC(N)=O)NC(=O)[C@H](CC(N)=O)NC(C)=O)C(C)C)C(=O)N[C@@H](CC(C)C)C(=O)N[C@@H](Cc1c[nH]cn1)C(=O)N[C@@H](C)C(=O)N[C@@H](C)C(=O)NCC(=O)N[C@@H](C)C(=O)N[C@@H](CCC(N)=O)C(=O)N[C@@H](Cc1ccc(O)cc1)C(N)=O,Protein S100-B,"binding, NMR line shape, fixed Kd",,"35 °C, low salt",,koff,30 ± 10 s⁻¹
C#CCO[C@@H]1CC[C@H](Cc2ccccc2)N(C(=O)n2ncc(C(O)(c3ccc(F)cc3)c3ccc(F)cc3)n2)C1,"Diacylglycerol lipase-alpha (Mus musculus, UniProt Q6WQJ1)","enzyme activity, inhibitor",,,,kinact,~0.00117 s⁻¹
CNc1cccc2cc(C(=O)NCCc3cccc(C(=O)O)c3)c(=O)[nH]c12,"gyrB (Escherichia coli, UniProt P0AES6)","DNA supercoiling, inhibitor",,concentration not given,reference: analogue without N-methylamino,fold increase in activity,> 4500 fold

# A few entries again:
Substance,tested on,assay,system,setting,scale,measurement,value
COc1cc2c(cc1OC)C(Cc1ccc(OCc3cccnc3)c(OC)c1)N(CC(=O)NCc1ccccc1)CC2 (stereo not shown),HCRTR1,"calcium signal, antagonist, fluorescence",,,,Kb,0.25 µM
CNc1ncnc2[nH]cnc12,"T1, guanine riboswitch C74U (Bacillus subtilis)",ITC,,"pH 7.5, 30 °C, KCl 100 mM, apparent",,Kd,105 µM
